Results collected from several papers.
Protocols differ between the studies behind these lines. Several values in a cell are separate wells, animals, samples, runs or records. Numbers after ± are the reported error.
Chain of UniProt P51575 (whole entry, unmodified, looked up): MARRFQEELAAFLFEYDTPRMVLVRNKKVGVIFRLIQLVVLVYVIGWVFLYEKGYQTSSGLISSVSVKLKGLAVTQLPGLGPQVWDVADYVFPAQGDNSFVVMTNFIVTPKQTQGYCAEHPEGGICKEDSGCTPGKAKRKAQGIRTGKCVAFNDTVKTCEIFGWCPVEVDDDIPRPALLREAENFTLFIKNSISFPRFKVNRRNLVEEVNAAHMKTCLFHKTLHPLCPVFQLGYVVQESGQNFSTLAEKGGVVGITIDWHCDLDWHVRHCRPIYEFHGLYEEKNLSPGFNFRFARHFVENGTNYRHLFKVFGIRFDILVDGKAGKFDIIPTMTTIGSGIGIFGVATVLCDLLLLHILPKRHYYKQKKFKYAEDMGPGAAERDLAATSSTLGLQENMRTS

SMILES | tested on | assay | system | conditions | how to read | endpoint | result
Oc1nc2nonc2cc1Nc1c(F)c(F)c(F)c(F)c1F | – | glucose tolerance test | Western diet-fed mice | in diet, 130 mg/kg/day, end of treatment | relative to: Western diet control | blood glucose | decreased
OC[C@H]1O[C@@H](c2ccc(Cl)c(Cc3ccc(O[C@H]4CCOC4)cc3)c2)[C@H](O)[C@@H](O)[C@@H]1O | – | – | Japanese type 1 diabetes patients | 25 mg, day 7, 168 h | relative to: baseline | diastolic blood pressure change | 2.1 mmHg
CCn1cc(-c2cc(Cn3ccnc3)cc3c2CCN([C@H](c2cc(OC)ccn2)C2CC2)C3=O)c(C(F)(F)F)n1 | NCI-H441 | cell growth, inhibitor | – | 120 h | – | EC50 | 14.5 µM
Cc1cc(Nc2ccc(S(F)(F)(F)(F)F)cc2)n2nc(C(C)(F)F)nc2n1 | Plasmodium falciparum | – | P. falciparum malaria patients | oral, 400 mg | – | patients with eye disorders | 7.7%
O=C1Nc2cc3[nH]nc(-c4ccncc4)c3cc2CN1Cc1ccccc1 | – | RECIST v1.1 | human, relapsed or refractory advanced solid tumours | intravenous, 3.6 mg/kg, pooled schedules | – | stable disease, best response | 0%
O=C(O)CNC(=O)Cc1ccccc1 | – | – | ventricular cardiomyocytes, C57BL/6 mouse | dose not given, 0.056 s | – | sarcomere length | 1.72 µm
COc1cnc2cccc(N3CCc4c(cc(Cn5ccnc5C)cc4-c4cn(C)nc4C(F)(F)F)C3=O)c2c1 | JVM-2 | cell growth, inhibitor | – | 120 h | – | EC50 | 7.8 µM
c1ccc(-c2n[nH]cc2-c2ccnc3ccccc23)nc1 | – | kinase binding, competitor, MIB/MS competition, item: CDC7 | Candida albicans cell lysate | 1 µM | relative to: DMSO | log2 fold change | 1.22
COc1ncnn2ccc(-c3cnc4nc(C)n(Cc5nnc([C@@H](C)F)o5)c4c3)c12 | – | – | relapsed or refractory AML, MDS | dose not given, splicing factor mutation-positive | – | best overall response PR | 0%
Nc1cc(C(F)(F)F)c(-c2cc(N3CCOCC3)nc(N3CCOCC3)n2)cn1 | – | – | human | 100 mg/day | relative to: baseline | best change in target lesions | 5.29% and 11.7% and 0%
COc1ccc(F)cc1C(=O)NCc1ccc(-c2nn([C@@H](C)C(F)(F)F)c(N)c2C(N)=O)cc1 | – | – | CLL/SLL patients | dose not given, therapy, prior, CAR T-cell | – | overall response rate | 90%
C[C@@H]1CCN(C(=O)CC#N)C[C@@H]1N(C)c1ncnc2[nH]ccc12 | – | – | Balb/c mice, oxazolone colitis, colonic mucosa | oral, 30 mg/kg twice daily | relative to: vehicle | pSTAT3 level | inhibited
CC(C)C[C@H](NC(=O)C[C@H](O)[C@H](CC(C)C)NC(=O)[C@H](Cc1c[nH]cn1)NC(=O)CNC(=O)[C@@H](NC(=O)[C@H](C)NC(=O)[C@H](Cc1c[nH]c2ccccc12)NC(=O)[C@H](CCC(N)=O)NC(=O)[C@@H](Cc1ccccc1)NC(=O)COCCOCCNC(=O)CCC(C(=O)O)N1CCN(CC(=O)O)CCN(CC(=O)O)CCN(CC(=O)O)CC1)C(C)C)C(N)=O (some centres unmarked) [lutetium-177 labelled] | – | – | female BALB/c nu/nu mice, liver | intravenous, 100 pmol, 90 h, added: PA 300 µg | – | tissue uptake | 0.3 ± 0.5 %ID/g
NC(=O)c1cnc2[nH]ccc2c1N[C@@H]1[C@@H]2CC3C[C@H]1C[C@@](O)(C3)C2 | – | CD8+ effector T cells, flow cytometry | Japanese humans, peripheral blood | 200 mg single dose | relative to: baseline | percent change | -1.15%
C[C@H](Oc1ccc(Br)cc1-c1ccon1)C(=O)O | – | last response latency | human, tibialis anterior muscle | 50 mg, 15 Hz, SAD | – | difference from placebo | 0.843%
C[C@H]1C[C@H]2CSC(N)=N[C@@]2(c2nc(NC(=O)c3ccc(OC(F)F)cn3)cs2)CO1 | – | item: Aβ1-40 | healthy adults, plasma | 3 mg single dose, 48 h post-dose | relative to: placebo | percent change from baseline | -28%
NCC(=O)Nc1cncc(-c2nn3c(=O)cc(N4CCNCC4)nc3s2)c1 | – | ADP-induced platelet aggregation, light transmission aggregometry | human, stable CAD on aspirin, platelets ex vivo | subcutaneous, 0.075 mg/kg, 180 min post-dose, added: ADP 20 µM | – | inhibition | 2.7%
Cn1cc(-c2ccc(-c3cncc(Cl)c3N3CCC4(CCNC4=O)CC3)cc2)cn1 | COLO 205 | gene expression, microarray, item: SQSTM1 mRNA | – | concentration not given, 6 h | relative to: untreated cells | log2 fold change | 2.41
CCOc1c([C@H](C)n2nc(C)c3c(N)ncnc32)cc(Cl)c(F)c1[C@@H]1CNC(=O)C1 | – | Olink proximity extension, item: IL2-RA | human FL or MZL patients, plasma | dose not given, week 8 day 1, once-daily dosing | relative to: baseline | percent change in level | -43%
Cc1cc(C)c(CNC(=O)c2cc(Cl)c3c(c2C)O[C@@](C)([C@H]2CC[C@H](N(C)C)CC2)O3)c(=O)[nH]1 | – | – | relapsed/refractory NHL patients, PTCL | oral, dose not given | – | best overall response NE | 0%
CCn1c(=O)c(-c2cc[nH]n2)cc2c(C)nc(N)nc21 | enterovirus A71 | – | suckling mouse, EV71-infected, spleen | 0.25 mg/kg | direction not given | white pulp integrity score | 0
CC(C)n1ncc2c(C(=O)NCC3(C)CNC3)cc(C3CC3)nc21 | Enterovirus D68 | time-of-addition | RD, US/MO/14-18947 | 3 µM, 7 to 7 h post infection | – | virus titre | 10800 PFU/mL and 8000 PFU/mL
Nc1ncnc2c1ncn2[C@@H]1O[C@H](COP(=O)(O)CP(=O)(O)OP(=O)(O)O)[C@@H](O)[C@H]1O | P2X purinoceptor 1 (P2RX1, Homo sapiens, UniProt P51575, M214A) | saturation binding | HEK293 | 52 nM | – | specific binding | 1270 CCPM and 592 CCPM and 773 CCPM
COc1cc(O)c(CC=C(C)C)c(O)c1C(=O)/C=C/c1ccc(O)cc1 | – | glucose tolerance test | Tac:SW mice (male, germ-free, high-fat diet) | in diet, 60 mg/kg per day, 30 min after glucose, after 10 weeks | – | blood glucose | 323 mg/dL
Cc1n[nH]c2ccc(-c3cc(OC[C@@H](N)Cc4ccccc4)cnc3-c3ccoc3)cc12 | – | kinase binding, competitor, MIB/MS competition, item: PBS2 | Candida albicans cell lysate | 10 µM | relative to: DMSO | log2 fold change | -0.766
Cc1cc(C)c(CNC(=O)c2cc(Cl)c3c(c2C)O[C@@](C)([C@H]2CC[C@H](N(C)C)CC2)O3)c(=O)[nH]1 | – | IWG criteria | relapsed/refractory AITL patients | dose not given | – | best response not assessed | 5%

Repeated from above:
SMILES | tested on | assay | system | conditions | how to read | endpoint | result
COc1cnc2cccc(N3CCc4c(cc(Cn5ccnc5C)cc4-c4cn(C)nc4C(F)(F)F)C3=O)c2c1 | JVM-2 | cell growth, inhibitor | – | 120 h | – | EC50 | 7.8 µM
Cc1cc(C)c(CNC(=O)c2cc(Cl)c3c(c2C)O[C@@](C)([C@H]2CC[C@H](N(C)C)CC2)O3)c(=O)[nH]1 | – | IWG criteria | relapsed/refractory AITL patients | dose not given | – | best response not assessed | 5%
Cn1cc(-c2ccc(-c3cncc(Cl)c3N3CCC4(CCNC4=O)CC3)cc2)cn1 | COLO 205 | gene expression, microarray, item: SQSTM1 mRNA | – | concentration not given, 6 h | relative to: untreated cells | log2 fold change | 2.41
CCn1cc(-c2cc(Cn3ccnc3)cc3c2CCN([C@H](c2cc(OC)ccn2)C2CC2)C3=O)c(C(F)(F)F)n1 | NCI-H441 | cell growth, inhibitor | – | 120 h | – | EC50 | 14.5 µM
